Assay results gathered from unrelated publications.
Compare with care: the assays were run in different laboratories. ± gives the spread as reported. Values after ≈ are worked out from the molar mass of the structure shown.
Chain of UniProt P53350 (whole entry, looked up): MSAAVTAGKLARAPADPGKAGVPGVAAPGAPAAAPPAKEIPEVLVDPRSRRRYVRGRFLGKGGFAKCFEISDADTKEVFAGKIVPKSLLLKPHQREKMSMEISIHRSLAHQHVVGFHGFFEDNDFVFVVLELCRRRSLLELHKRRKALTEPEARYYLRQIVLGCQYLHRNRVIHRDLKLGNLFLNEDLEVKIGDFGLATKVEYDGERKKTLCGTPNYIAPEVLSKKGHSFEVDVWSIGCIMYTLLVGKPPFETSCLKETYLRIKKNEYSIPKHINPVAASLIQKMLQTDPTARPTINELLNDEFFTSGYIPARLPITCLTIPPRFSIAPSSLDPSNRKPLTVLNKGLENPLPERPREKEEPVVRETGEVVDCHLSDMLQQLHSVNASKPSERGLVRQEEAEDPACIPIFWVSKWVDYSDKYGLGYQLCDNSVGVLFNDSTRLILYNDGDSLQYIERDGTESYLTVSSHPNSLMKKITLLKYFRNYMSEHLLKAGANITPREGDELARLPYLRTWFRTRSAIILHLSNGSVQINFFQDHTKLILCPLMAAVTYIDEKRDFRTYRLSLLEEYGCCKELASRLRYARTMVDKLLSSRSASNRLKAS

`CCOc1c([C@H](C)n2nc(C)c3c(N)ncnc32)cc(Cl)c(F)c1[C@@H]1CNC(=O)C1` — result for “half-life geometric mean”: 10.3 ± 1.96 h (patients with DLBCL, plasma; oral, 30 mg, day 15, monotherapy).
`COc1ccc(N=Nc2c(N)nn3c(-c4ccc(C)cc4)cc(-c4ccc(OCc5ccccc5)cc4)nc23)cc1` has an MBC/MIC ratio of 2 (Enterococcus faecalis; broth microdilution; MTCC 0459).
The remaining activity of `O=C(Nc1cc(-c2ccc(Cl)cc2)[nH]n1)C1CCCCC1` is reported as 86% (Serine/threonine-protein kinase PLK1 (PLK1, Homo sapiens, UniProt P53350); enzyme activity, Dundee kinase panel; 10 µM).
`Nc1nn2c(-c3ccc(Cl)cc3Cl)cc(-c3ccc(OCc4ccccc4)cc3)nc2c1N=Nc1ccc(F)cc1` has an MIC of 62.5 µg/mL (≈ 107 µM) (Bacillus pumilus; broth microdilution; MTCC 2296).
With `COc1ccc(NC(=O)Cn2cc(COc3ccc(-c4nc5ccccc5c(=O)n4Nc4ccc([N+](=O)[O-])cc4[N+](=O)[O-])cc3OC)nn2)cc1` the inhibition was 27.8 ± 2.45% (mushroom tyrosinase; enzyme activity; 40 µM, added: L-DOPA).

For quick reference, copied from above:
The remaining activity of `O=C(Nc1cc(-c2ccc(Cl)cc2)[nH]n1)C1CCCCC1` is reported as 86% (Serine/threonine-protein kinase PLK1 (PLK1, Homo sapiens, UniProt P53350); enzyme activity, Dundee kinase panel; 10 µM).
